Published values from different studies.
Compare with care: the assays were run in different laboratories. ± marks the error that the study gave.
GBA2: Beta-glucosidase (GBA2, Homo sapiens, UniProt Q9HCG7)
Sequence of UniProt Q9HCG7 (whole entry, looked up): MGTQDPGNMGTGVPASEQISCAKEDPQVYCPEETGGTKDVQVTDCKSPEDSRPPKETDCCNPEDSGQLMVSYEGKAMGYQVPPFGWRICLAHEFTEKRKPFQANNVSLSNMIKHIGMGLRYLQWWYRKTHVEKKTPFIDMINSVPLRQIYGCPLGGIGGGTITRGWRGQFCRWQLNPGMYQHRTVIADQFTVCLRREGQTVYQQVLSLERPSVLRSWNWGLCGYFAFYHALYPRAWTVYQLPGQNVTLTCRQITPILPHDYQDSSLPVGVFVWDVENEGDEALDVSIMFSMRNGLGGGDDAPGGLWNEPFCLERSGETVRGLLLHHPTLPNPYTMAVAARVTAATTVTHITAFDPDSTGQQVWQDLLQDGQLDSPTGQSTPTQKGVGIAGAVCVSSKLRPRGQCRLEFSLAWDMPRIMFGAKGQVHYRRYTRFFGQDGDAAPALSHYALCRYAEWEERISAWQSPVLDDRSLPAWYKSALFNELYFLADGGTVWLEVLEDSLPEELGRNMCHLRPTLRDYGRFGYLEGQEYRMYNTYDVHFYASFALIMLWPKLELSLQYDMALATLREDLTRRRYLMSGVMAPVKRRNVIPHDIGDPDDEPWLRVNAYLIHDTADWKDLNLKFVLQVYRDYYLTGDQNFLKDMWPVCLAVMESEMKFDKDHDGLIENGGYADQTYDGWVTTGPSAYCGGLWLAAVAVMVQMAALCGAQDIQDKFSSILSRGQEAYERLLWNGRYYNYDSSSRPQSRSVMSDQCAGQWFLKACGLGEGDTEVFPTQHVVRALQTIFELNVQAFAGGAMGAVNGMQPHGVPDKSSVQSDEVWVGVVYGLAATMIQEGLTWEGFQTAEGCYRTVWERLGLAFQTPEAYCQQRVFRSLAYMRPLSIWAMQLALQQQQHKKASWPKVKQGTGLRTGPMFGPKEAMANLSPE
Sequence of UniProt Q06180 (whole entry, looked up): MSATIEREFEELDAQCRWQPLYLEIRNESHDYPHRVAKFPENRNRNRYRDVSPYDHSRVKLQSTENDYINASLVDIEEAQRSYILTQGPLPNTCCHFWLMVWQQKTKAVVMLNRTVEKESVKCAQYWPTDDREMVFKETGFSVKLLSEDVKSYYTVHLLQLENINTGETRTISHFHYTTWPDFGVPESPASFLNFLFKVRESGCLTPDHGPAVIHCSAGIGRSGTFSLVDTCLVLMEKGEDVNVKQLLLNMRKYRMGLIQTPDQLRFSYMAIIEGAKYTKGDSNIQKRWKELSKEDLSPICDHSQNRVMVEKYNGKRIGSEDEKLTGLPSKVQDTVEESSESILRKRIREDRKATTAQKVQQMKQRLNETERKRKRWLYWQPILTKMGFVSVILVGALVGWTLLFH
Sequence of UniProt Q56UN5 (whole entry, looked up): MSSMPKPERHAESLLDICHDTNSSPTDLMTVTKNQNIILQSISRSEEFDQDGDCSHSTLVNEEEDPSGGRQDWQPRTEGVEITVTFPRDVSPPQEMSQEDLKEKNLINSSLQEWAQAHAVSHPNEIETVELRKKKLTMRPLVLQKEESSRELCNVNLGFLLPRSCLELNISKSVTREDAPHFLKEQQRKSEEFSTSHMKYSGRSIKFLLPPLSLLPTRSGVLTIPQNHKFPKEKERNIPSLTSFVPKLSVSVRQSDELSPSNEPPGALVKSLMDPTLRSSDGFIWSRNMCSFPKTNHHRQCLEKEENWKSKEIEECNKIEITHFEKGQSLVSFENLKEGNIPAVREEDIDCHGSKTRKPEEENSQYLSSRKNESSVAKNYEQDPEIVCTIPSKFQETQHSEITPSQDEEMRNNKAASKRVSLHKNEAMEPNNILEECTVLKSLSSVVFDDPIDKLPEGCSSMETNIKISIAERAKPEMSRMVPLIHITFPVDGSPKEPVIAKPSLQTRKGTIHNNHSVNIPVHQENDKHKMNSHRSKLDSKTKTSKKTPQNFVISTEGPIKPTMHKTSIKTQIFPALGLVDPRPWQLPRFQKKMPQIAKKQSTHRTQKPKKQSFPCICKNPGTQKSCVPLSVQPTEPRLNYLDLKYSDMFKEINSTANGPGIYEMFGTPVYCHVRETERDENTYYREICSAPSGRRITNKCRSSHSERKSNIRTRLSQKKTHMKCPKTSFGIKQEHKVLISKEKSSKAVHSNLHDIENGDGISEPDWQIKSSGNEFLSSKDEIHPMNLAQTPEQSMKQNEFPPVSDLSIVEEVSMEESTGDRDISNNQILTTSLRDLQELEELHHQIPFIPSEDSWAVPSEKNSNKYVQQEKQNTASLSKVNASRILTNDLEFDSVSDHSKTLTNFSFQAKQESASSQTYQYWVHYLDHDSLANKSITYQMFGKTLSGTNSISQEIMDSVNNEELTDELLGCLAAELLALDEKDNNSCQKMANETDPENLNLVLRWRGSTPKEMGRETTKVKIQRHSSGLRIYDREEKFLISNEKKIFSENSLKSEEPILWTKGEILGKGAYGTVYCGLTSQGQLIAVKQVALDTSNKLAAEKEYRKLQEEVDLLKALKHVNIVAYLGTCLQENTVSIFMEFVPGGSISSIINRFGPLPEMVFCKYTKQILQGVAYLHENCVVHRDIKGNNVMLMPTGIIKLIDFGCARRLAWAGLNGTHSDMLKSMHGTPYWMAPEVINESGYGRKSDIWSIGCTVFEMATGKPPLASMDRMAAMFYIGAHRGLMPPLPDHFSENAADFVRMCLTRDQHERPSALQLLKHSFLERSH
Sequence of UniProt P03372 (whole entry, looked up): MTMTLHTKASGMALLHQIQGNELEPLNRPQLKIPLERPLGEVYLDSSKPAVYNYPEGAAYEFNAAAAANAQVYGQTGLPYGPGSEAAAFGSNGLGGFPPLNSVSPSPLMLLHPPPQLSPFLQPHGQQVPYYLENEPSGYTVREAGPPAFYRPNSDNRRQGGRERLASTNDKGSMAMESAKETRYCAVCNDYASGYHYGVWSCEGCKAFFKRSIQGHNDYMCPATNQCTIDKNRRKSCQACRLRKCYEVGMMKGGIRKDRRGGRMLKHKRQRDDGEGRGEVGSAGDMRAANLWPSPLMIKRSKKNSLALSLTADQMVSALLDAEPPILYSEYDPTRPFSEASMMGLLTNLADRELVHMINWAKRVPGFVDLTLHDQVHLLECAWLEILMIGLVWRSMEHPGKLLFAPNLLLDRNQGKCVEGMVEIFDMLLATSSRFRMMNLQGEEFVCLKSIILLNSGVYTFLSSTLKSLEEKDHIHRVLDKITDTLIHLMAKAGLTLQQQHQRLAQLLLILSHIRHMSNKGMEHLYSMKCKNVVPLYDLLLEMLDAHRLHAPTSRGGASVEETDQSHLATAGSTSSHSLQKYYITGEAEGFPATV
Sequence of UniProt P41279 (whole entry, looked up): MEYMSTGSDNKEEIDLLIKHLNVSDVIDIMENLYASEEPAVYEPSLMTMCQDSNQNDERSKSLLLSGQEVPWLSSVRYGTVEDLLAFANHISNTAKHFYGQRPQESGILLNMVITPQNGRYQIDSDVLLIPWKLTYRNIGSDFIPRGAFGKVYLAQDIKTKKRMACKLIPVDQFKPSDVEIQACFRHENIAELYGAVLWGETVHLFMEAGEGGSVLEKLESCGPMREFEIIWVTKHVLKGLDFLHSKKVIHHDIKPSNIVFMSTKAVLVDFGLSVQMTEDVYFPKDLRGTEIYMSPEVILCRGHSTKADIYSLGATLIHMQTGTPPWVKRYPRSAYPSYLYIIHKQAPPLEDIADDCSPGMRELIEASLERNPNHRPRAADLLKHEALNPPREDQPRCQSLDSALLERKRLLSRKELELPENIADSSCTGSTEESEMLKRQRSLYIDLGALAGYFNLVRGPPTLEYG
Sequence of UniProt P09038 (whole entry, looked up): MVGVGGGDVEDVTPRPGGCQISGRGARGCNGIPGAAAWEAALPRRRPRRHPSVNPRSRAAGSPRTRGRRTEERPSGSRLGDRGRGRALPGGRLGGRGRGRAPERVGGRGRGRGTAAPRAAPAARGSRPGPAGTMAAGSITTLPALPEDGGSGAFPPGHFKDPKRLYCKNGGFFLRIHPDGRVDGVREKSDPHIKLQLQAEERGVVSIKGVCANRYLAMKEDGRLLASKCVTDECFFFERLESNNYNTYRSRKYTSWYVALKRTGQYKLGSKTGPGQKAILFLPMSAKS
Sequence of UniProt P05067 (whole entry, looked up): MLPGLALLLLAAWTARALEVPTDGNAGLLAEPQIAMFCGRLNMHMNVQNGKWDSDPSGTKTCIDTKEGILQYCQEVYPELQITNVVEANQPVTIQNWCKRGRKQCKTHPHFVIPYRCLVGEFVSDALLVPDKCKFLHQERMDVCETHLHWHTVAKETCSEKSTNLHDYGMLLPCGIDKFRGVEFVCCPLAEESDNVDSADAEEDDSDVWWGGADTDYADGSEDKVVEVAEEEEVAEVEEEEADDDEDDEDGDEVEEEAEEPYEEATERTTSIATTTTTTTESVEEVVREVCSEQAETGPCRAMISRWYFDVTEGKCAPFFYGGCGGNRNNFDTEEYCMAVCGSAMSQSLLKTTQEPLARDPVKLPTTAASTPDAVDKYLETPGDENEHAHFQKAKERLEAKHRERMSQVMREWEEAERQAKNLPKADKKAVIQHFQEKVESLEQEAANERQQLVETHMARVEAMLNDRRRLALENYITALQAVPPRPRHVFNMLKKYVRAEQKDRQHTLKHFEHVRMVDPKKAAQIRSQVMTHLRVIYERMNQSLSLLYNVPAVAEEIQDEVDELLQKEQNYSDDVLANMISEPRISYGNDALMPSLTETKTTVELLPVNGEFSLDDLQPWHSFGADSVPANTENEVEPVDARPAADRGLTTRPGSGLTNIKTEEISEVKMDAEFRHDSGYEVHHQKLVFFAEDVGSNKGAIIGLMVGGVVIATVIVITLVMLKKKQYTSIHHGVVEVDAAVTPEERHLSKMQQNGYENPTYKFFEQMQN

Compound | target | assay | test system | setting | quantity | value
O=C(Nc1cccc(Cl)c1)C(C(F)(F)F)C(F)(F)F | Chymotrypsinogen A (Bos taurus, UniProt P00766) | enzyme activity, inhibitor, fluorescence |  |  | IC50 | 3400 nM
COc1cc(/C=C/C(=O)C2=C(/C=C/c3ccc(O)c(OC)c3)NC(=O)NC2[c-]2cccc2)ccc1O.[Fe+2].c1cc[cH-]c1 (racemic) | Amyloid-beta precursor protein, Aβ40 fibrils (APP, Homo sapiens, UniProt P05067) | amyloid fibril disassembly, thioflavin T fluorescence |  | 24 h, 37 °C, with: 25 µM amyloid-beta | DC50 | 8.7 ± 0.8 µM
CC[C@H]([C@H](C)c1ccc(O)cc1)[C@H](CC)c1ccc(O)cc1 | Estrogen receptor (ESR1, Homo sapiens, UniProt P03372) | reporter gene, luciferase reporter (3xERE) | 293T | 24 h | EC50 | 0.605 nM
OC[C@@H]1[C@@H](O)[C@H](O)[C@@H](O)CN1CCCCCOCc1ccc(-c2ccc3c(c2)OCO3)cc1 | GBA2 | inhibitor, 4MU-β-D-glucopyranoside | HEK293T homogenates overexpressing GBA2 |  | IC50 | 2 nM
CC(=O)N[C@@H]1[C@@H](O[C@@H]2O[C@H](C(=O)O)[C@@H](O[C@@H]3O[C@H](COS(=O)(=O)O)[C@@H](OS(=O)(=O)O)[C@H](O[C@@H]4O[C@H](C(=O)O)[C@@H](O[C@@H]5O[C@H](COS(=O)(=O)O)[C@@H](OS(=O)(=O)O)[C@H](O[C@@H]6O[C@H](C(=O)O)[C@@H](OS(=O)(=O)O)[C@H](OS(=O)(=O)O)[C@H]6OS(=O)(=O)O)[C@H]5NC(C)=O)[C@H](OS(=O)(=O)O)[C@H]4OS(=O)(=O)O)[C@H]3NC(C)=O)[C@H](OS(=O)(=O)O)[C@H]2OS(=O)(=O)O)[C@H](OS(=O)(=O)O)[C@@H](COS(=O)(=O)O)O[C@H]1N=[N+]=[N-] | Fibroblast growth factor 2 (Homo sapiens, UniProt P09038) | probe displacement, FP competition |  | protein 23 nM, with: TAMRA-labelled sHA tetramer probe | EC50 | 520 ± 240 nM
CC1(C)C[C@@H](Nc2cccc(-c3sc(C(=O)O)c(OCC(=O)O)c3Cl)c2)CCN1S(=O)(=O)Cc1cccc(NC(=O)CN2CCC(c3ccc4c(c3)oc(=O)n4C3CCC(=O)NC3=O)CC2)c1 (stereo partly shown) | Tyrosine-protein phosphatase non-receptor type 2 (Ptpn2, Mus musculus, UniProt Q06180) | degrader, Western blot | B16-F10 | 24 h | DC50 | 0.025 µM
CC(C)=CCC/C(C)=C/CC/C(C)=C/CN1C[C@@H](O)[C@H](O)[C@H](O)[C@@H]1CO | GBA2 | inhibitor, 4MU-β-D-glucopyranoside | HEK293T homogenates overexpressing GBA2 |  | IC50 | 2.7 nM
Cc1c[nH]c2nccc(-c3ccc(C(=O)N[C@@H]4c5c(F)cc(C(F)F)cc5C[C@@H]4O)cn3)c12 | MAP3K19 (Homo sapiens, UniProt Q56UN5) | binding, competition with immobilised ligand |  |  | Kd | 180 nM
CC(C)(C)CCOCCCCCN1C[C@H](O)[C@@H](O)[C@H](O)[C@H]1CO | GBA2 | inhibitor, 4MU-β-D-glucopyranoside | HEK293T homogenates overexpressing GBA2 |  | IC50 | 5 nM
Cc1nn(-c2cccc(N)c2)c(=O)c2cnc(Nc3ccc(N4CCNCC4)cc3)nc12 | MAP3K8 (Homo sapiens, UniProt P41279) | SelectScreen kinase |  |  | IC50 | 2410 nM

A few entries again:
Compound | target | assay | test system | setting | quantity | value
CC(=O)N[C@@H]1[C@@H](O[C@@H]2O[C@H](C(=O)O)[C@@H](O[C@@H]3O[C@H](COS(=O)(=O)O)[C@@H](OS(=O)(=O)O)[C@H](O[C@@H]4O[C@H](C(=O)O)[C@@H](O[C@@H]5O[C@H](COS(=O)(=O)O)[C@@H](OS(=O)(=O)O)[C@H](O[C@@H]6O[C@H](C(=O)O)[C@@H](OS(=O)(=O)O)[C@H](OS(=O)(=O)O)[C@H]6OS(=O)(=O)O)[C@H]5NC(C)=O)[C@H](OS(=O)(=O)O)[C@H]4OS(=O)(=O)O)[C@H]3NC(C)=O)[C@H](OS(=O)(=O)O)[C@H]2OS(=O)(=O)O)[C@H](OS(=O)(=O)O)[C@@H](COS(=O)(=O)O)O[C@H]1N=[N+]=[N-] | Fibroblast growth factor 2 (Homo sapiens, UniProt P09038) | probe displacement, FP competition |  | protein 23 nM, with: TAMRA-labelled sHA tetramer probe | EC50 | 520 ± 240 nM
